Published values of several laboratories.
Each line is one published result; not all experiments were run side by side.
Sample: plasma
Route: oral

For `N#Cc1ccc(-c2cnc3ccc(-c4ccc(C(=O)N5CCOCC5)cc4)cn23)cc1`, the Tmax was 4.62 h (human; 10 mg, single dose, fed, healthy volunteers).
For `COc1cc2ncnc(Nc3ccc(F)c(Cl)c3)c2cc1OCCCN1CCOCC1`, the Tmax was 4.6 h (human; 250 mg).
`CCOc1ccc(Cc2cc([C@]34OC[C@](CO)(O3)[C@@H](O)[C@H](O)[C@H]4O)ccc2Cl)cc1` gave a Tmax of 1 h (human; 15 mg, single dose).
`C#C[C@]1(CO)O[C@@H](n2cnc3c(N)nc(F)nc32)C[C@@H]1O` gave a Tmax of 0.5 h (human; 15 mg, single dose, fasted).
With `CC(=O)N[C@H]1CC[C@H](NC(=O)CN2CCN(c3nncc(-c4ccc(C)cc4)n3)CC2)CC1` the Tmax was 1.5 h (male human; 100 mg, single dose, fasted, healthy volunteers).
For `C[C@H]1CO[C@@H]2Cn3cc(C(=O)NCc4ccc(F)cc4F)c(=O)c(O)c3C(=O)N12`, the Tmax was 3 h (human; 30 mg, single dose, fasted).
For `CCCCCN1C[C@H](O)[C@@H](O)[C@H](O)[C@@H]1CO`, the Tmax was 1 h (male human; 10 mg, single dose, fasted, healthy volunteers).
For `COc1cccc(-c2ccc(NC(=O)C3=C(C(=O)O)CCC3)c(F)c2)c1`, the Tmax was 7 h (male human; 10 mg, single dose, fed, healthy volunteers).
`Nc1ncc(-c2cnn(CCO)c2)c2scc(-c3ccc(NC(=O)Nc4cccc(F)c4)cc3)c12` has a Tmax of 3 h (human; 80 mg, patients).
`O=C(c1nc2n(n1)[C@H](c1ccccc1)C[C@@H]2F)C1CC1` has a Tmax of 4 h (human; 150 mg, single dose, fasted, healthy volunteers).
`CCCOc1ccc([C@H]2CNC(=O)N2c2ccc3[nH]cnc3c2)cc1` gave a Tmax of 1.26 h (human; 1800 mg, single dose, fasted, healthy volunteers).
The Tmax of `CS(=O)(=O)n1cc2c(n1)CN([C@H]1CO[C@H](c3cc(F)ccc3F)[C@@H](N)C1)C2` is reported as 4 h (male human; 10 mg, single dose, fed).
For `O=C(c1cccnc1-c1ccncc1)N1CCC(O)(Cc2ccccc2)CC1`, the Tmax was 0.33 h (human; 300 mg, multiple doses, once daily, healthy volunteers).
`CNC(=O)c1ccc(-c2cnc3ncc(Cc4ccc5ncccc5c4)n3n2)cc1F` gave a Tmax of 2.86 h (human; 100 mg twice daily, multiple doses, steady state, patients).
The Tmax of `O=C(O)C[C@H](O)C[C@H](O)/C=C/c1c(C2CC2)nc2ccccc2c1-c1ccc(F)cc1` is reported as 0.6 h (male human; 2 mg, multiple doses, once daily).
`CNCc1ccc(-c2[nH]c3cc(F)cc4c3c2CCNC4=O)cc1` has a Tmax of 4.02 h (human; 600 mg, single dose, fasted).
With `CNc1nc(Nc2ccc(-n3cnc(C)n3)c(OC)c2)nc2c1CC[C@H]2c1ccc(F)cc1` the Tmax was 4.5 h (human; 900 mg, healthy volunteers).
`O=C(O)COC[C@H]1CC[C@H](COC(=O)N(c2ccccc2)c2ccc(Cl)cc2)CC1` has a Tmax of 1 h (human; 40 µg, multiple doses, twice daily, steady state).
`C[C@H](N)C(=O)N1C[C@H](CCCB(O)O)[C@](N)(C(=O)O)C1` has a Tmax of 2 h (human; 150 mg twice daily, multiple doses, patients).
The Tmax of `CN(C)Cc1c(C(=O)NCCOc2ccc(C(=O)NO)cc2)oc2ccccc12` is reported as 0.99 h (human; 80 mg, single dose, patients).
For `Cn1ncc(Cl)c1-c1cc(C(=O)N[C@H](CN)Cc2ccc(F)c(F)c2)oc1Cl`, the Tmax was 0 to 4 h (human; 150 mg, multiple doses, once daily, patients).
`CC(C)n1nc(-c2ccc3oc(N)nc3c2)c2c(N)ncnc21` gave a Tmax of 2.6 h (human; 20 mg, multiple doses, patients).
With `CC(C)(Sc1ccncc1-c1ccc(C#N)c2ccccc12)C(=O)O` the Tmax was 1.75 h (male human; 10 mg, single dose, fasted).
For `C[C@@H]1CCC[C@H](n2cnc(-c3cc(Cl)ccc3-n3cc(Cl)nn3)cc2=O)c2cc(ccn2)-c2c(cnn2C(F)F)NC1=O`, the Tmax was 3 h (human; single dose, fasted, healthy volunteers).
For `CN(C)C/C=C/C(=O)Nc1cc2c(Nc3ccc(F)c(Cl)c3)ncnc2cc1O[C@H]1CCOC1`, the Tmax was 5 h (human; 20 mg, multiple doses, once daily, steady state, patients).
For `CS(=O)(=O)n1cc2c(n1)CN([C@H]1CO[C@H](c3cc(F)ccc3F)[C@@H](N)C1)C2`, the Tmax was 2 h (male human; 100 mg, single dose, fasted).
The Tmax of `NC(=O)c1cnc2[nH]ccc2c1N[C@@H]1[C@@H]2CC3C[C@H]1C[C@@](O)(C3)C2` is reported as 1 h (male human; 20 mg, single dose, fasted, healthy volunteers).
`Nc1ccc(-c2nc([C@H]3CCc4cc(-c5cc(Cl)ccc5-n5cnnn5)cc(=O)n43)c(F)[nH]2)c(F)n1` gave a Tmax of 4 h (human; 300 mg, single dose, fasted, healthy volunteers).

Repeated from above:
With `CC(C)(Sc1ccncc1-c1ccc(C#N)c2ccccc12)C(=O)O` the Tmax was 1.75 h (male human; 10 mg, single dose, fasted).
For `C[C@@H]1CCC[C@H](n2cnc(-c3cc(Cl)ccc3-n3cc(Cl)nn3)cc2=O)c2cc(ccn2)-c2c(cnn2C(F)F)NC1=O`, the Tmax was 3 h (human; single dose, fasted, healthy volunteers).
For `CN(C)C/C=C/C(=O)Nc1cc2c(Nc3ccc(F)c(Cl)c3)ncnc2cc1O[C@H]1CCOC1`, the Tmax was 5 h (human; 20 mg, multiple doses, once daily, steady state, patients).
For `CS(=O)(=O)n1cc2c(n1)CN([C@H]1CO[C@H](c3cc(F)ccc3F)[C@@H](N)C1)C2`, the Tmax was 2 h (male human; 100 mg, single dose, fasted).
The Tmax of `NC(=O)c1cnc2[nH]ccc2c1N[C@@H]1[C@@H]2CC3C[C@H]1C[C@@](O)(C3)C2` is reported as 1 h (male human; 20 mg, single dose, fasted, healthy volunteers).
